{"data": "Values quoted from earlier work as cited in several papers", "note": "Compare with care: the assays were run in different laboratories. ± gives the spread as reported."}
{"SMILES": "NC(CNC(CNC(CC(=O)O)C(=O)O)C(=O)O)C(=O)O (stereo not shown)", "system": "mouse", "conditions": "intravenous", "measurement": "LD50", "result": "160 mg/kg"}
{"SMILES": "O=C(OCC[18F])C1C2CCC(CC1c1ccc(/C=C\\I)cc1)N2 (stereo not shown)", "tested on": "SERT", "test": "microPET", "system": "anaesthetised, thalamus", "measurement": "time to peak uptake", "result": "85 min"}
{"SMILES": "Nc1ncnc2c1ncn2C1CC(O)C(COP(=O)(O)OP(=O)(O)C(Cl)P(=O)(O)O)O1 (mixture of isomers)", "test": "measured: bisphosphonate leaving group", "system": "aqueous solution", "conditions": "measured experimentally", "measurement": "pKa4", "result": 9.5}
{"SMILES": "CSCC[C@H](NC(=O)[C@H](Cc1c[nH]c2ccccc12)NC(=O)[C@H](Cc1c[nH]c2ccccc12)NC(=O)[C@H](CCC(=O)O)NC(=O)[C@@H]1CCCN1C(=O)[C@H](CCCNC(=N)N)NC(=O)CNC(=O)[C@@H](N)C(C)C)C(=O)N[C@@H](CC(=O)O)C(=O)N[C@@H](Cc1ccc(O)cc1)C(=O)N[C@@H](CCC(N)=O)C(=O)N[C@@H](CCCCN)C(=O)N[C@@H](CCCNC(=N)N)C(=O)N[C@@H](Cc1ccc(O)cc1)C(=O)NCC(=O)O", "system": "human, hairy skin", "conditions": "intracutaneous", "measurement": "itch threshold concentration", "result": "> 1 mM"}
{"SMILES": "CC(=O)N1CC2(CCN(C(=O)[C@@H](CCCCN)NC(=O)[C@@H](CC(C)C)NC(=O)[C@@H](Cc3ccccc3)NC(=O)[C@H](N)Cc3ccccc3)CC2)C1", "test": "whole body plethysmography", "system": "mouse", "conditions": "2.0 mg/kg", "measurement": "respiratory rate", "result": "no effect"}
{"SMILES": "CN[C@H](CC(C)C)C(=O)N[C@H]1C(=O)N[C@@H](CC(N)=O)C(=O)N[C@H]2C(=O)N[C@H]3C(=O)N[C@H](C(=O)N[C@H](C(=O)O)c4cc(O)cc(O)c4-c4cc3ccc4O)[C@H](O)c3ccc(c(Cl)c3)Oc3cc2cc(c3O[C@@H]2O[C@H](CO)[C@@H](O)[C@H](O)[C@H]2O[C@H]2C[C@](C)(NCc3ccc(-c4ccc(Cl)cc4)cc3)[C@H](O)[C@H](C)O2)Oc2ccc(cc2Cl)[C@H]1O", "system": "mouse, plasma", "conditions": "intravenous, 10 mg/kg", "measurement": "volume of distribution", "result": "1.28 L/kg"}
{"SMILES": "COc1ccc(C2=[N+]([O-])c3ccccc3N3CCCN=C23)cc1", "system": "octanol/PBS", "measurement": "logP", "result": -0.128}
{"SMILES": "CN[C@H](CC(C)C)C(=O)N[C@H]1C(=O)N[C@@H](CC(N)=O)C(=O)N[C@H]2C(=O)N[C@H]3C(=O)N[C@H](C(=O)N[C@H](C(=O)NCCCNC(=N)N)c4cc(O)cc(O)c4-c4cc3ccc4O)[C@H](O)c3ccc(c(Cl)c3)Oc3cc2cc(c3O[C@@H]2O[C@H](CO)[C@@H](O)[C@H](O)[C@H]2O[C@H]2C[C@](C)(NCc3ccc(-c4ccc(Cl)cc4)cc3)[C@H](O)[C@H](C)O2)Oc2ccc(cc2Cl)[C@H]1O", "system": "mouse", "conditions": "intravenous", "measurement": "maximum tolerated dose", "result": "≥ 50 mg/kg"}
{"SMILES": "COC[C@@H](NC(C)=O)C(=O)NCc1ccc(OCc2ccc(F)cc2)cc1", "test": "behavioural toxicity", "system": "rat", "conditions": "oral", "measurement": "TD50", "result": "> 500 mg/kg"}
{"SMILES": "COC(=O)CC[C@@H](C)C1CCC2C3C(CC[C@@]21C)[C@@]1(C)CC[C@@H](n2cc(CO[C@H]4O[C@@H]5O[C@@]6(C)CCC7[C@H](C)CC[C@@H]([C@H]4C)[C@]75OO6)nn2)CC1C[C@@H]3O (stereo partly shown)", "system": "cell culture medium", "conditions": "up to 24 h", "measurement": "stability", "result": "stable"}
{"SMILES": "O=[N+]([O-])c1ccc(C2=[N+]([O-])c3ccccc3N3CCCN=C23)cc1", "system": "octanol/PBS", "measurement": "logP", "result": 0.657}
{"SMILES": "O=C(O)CCC(NP(=O)(O)OCCC[C@@H](NC(=O)CCC(NC(=O)CCCCCNC(=O)c1ccc([18F])cc1)C(=O)O)C(=O)O)C(=O)O (stereo partly shown)", "system": "mouse, CWR22Rv1 xenograft, tumour", "conditions": "1 h", "measurement": "tumour uptake", "result": "2.35 %ID/g"}
{"SMILES": "CCCCCCCC(=O)OC[C@H](NC(=O)[C@H](CO)NC(=O)CN)C(=O)N[C@@H](Cc1ccccc1)C(=O)N[C@@H](CC(C)C)C(=O)N[C@@H](CO)C(=O)N1CCC[C@H]1C(=O)N[C@@H](CCC(=O)O)C(=O)N[C@@H](Cc1cnc[nH]1)C(=O)N[C@@H](CCC(N)=O)C(=O)N[C@@H](CCCNC(=N)N)C(=O)N[C@H](C(=O)N[C@@H](CCC(N)=O)C(=O)N[C@@H](CCC(N)=O)C(=O)N[C@@H](CCCNC(=N)N)C(=O)N[C@@H](CCCCN)C(=O)N[C@@H](CCC(=O)O)C(=O)N[C@@H](CO)C(=O)N[C@@H](CCCCN)C(=O)N[C@@H](CCCCN)C(=O)N1CCC[C@H]1C(=O)N1CCC[C@H]1C(=O)N[C@@H](C)C(=O)N[C@@H](CCCCN)C(=O)N[C@@H](CC(C)C)C(=O)N[C@@H](CCC(N)=O)C(=O)N1CCC[C@H]1C(=O)N[C@@H](CCCNC(=N)N)C(=O)O)C(C)C", "test": "measured: total ghrelin", "conditions": "injection, 1 µg/kg", "measurement": "half-life", "result": "36 ± 2.4 min"}
{"SMILES": "CC[C@H](C)C(=O)N1CCC(NC(=O)Nc2ccc(OC(F)(F)F)c(F)c2)CC1", "system": "rat", "conditions": "oral, 28 d", "measurement": "NOAEL", "result": "5 mg/kg/day"}
{"SMILES": "C[C@]12CCNC1Nc1ccc(OC(=O)Nc3ccccc3)cc12 (single isomer, unassigned; (+))", "system": "human, plasma", "conditions": "40 mg Posiphen", "measurement": "Cmax", "result": "3.8 ng/mL"}
{"SMILES": "CCN1CCCC1CNC(=O)c1cc(Br)cc(OC)c1O[11CH3] (stereo not shown)", "system": "human", "measurement": "VND", "result": "2.9 mL/cm³"}
{"SMILES": "CC[C@H](C)[C@@H]1NC(=O)[C@H](CCCCN)NC(=O)[C@H](CCCCN)NC(=O)[C@H](Cc2ccc(O)cc2)NC(=O)[C@H](CC(C)C)NC(=O)[C@@H]2CCCN2C(=O)CNC(=O)CNC(=O)[C@@H](N)CSSC[C@@H](C(=O)N[C@@H](CCC(=O)O)C(=O)N[C@@H](CO)C(N)=O)NC(=O)[C@H](CC(C)C)NC(=O)[C@H](CCCCN)NC(=O)[C@H](CCCCN)NC(=O)[C@H]([C@@H](C)CC)NC(=O)[C@H]([C@@H](C)CC)NC(=O)[C@H](CCCCN)NC(=O)[C@H](CCCCN)NC(=O)[C@H](Cc2ccc(O)cc2)NC(=O)[C@H](CC(C)C)NC(=O)[C@@H]2CCCN2C(=O)[C@H](C)NC(=O)CNC(=O)CNC(=O)[C@H](CO)NC(=O)CNC(=O)CNC(=O)[C@H](CO)NC(=O)[C@H](CCC(=O)O)NC(=O)[C@H](CC(C)C)NC(=O)[C@H](CC(C)C)NC(=O)[C@H](CCCCN)NC(=O)[C@H](CCCCN)NC(=O)[C@H]([C@@H](C)CC)NC1=O", "system": "25% human serum in PBS", "conditions": "37 °C", "measurement": "half-life", "result": "~1440 min"}
{"SMILES": "C=C(C)[C@@H]1CCC(C(=O)O)=C[C@H]1c1c(O)cc(CCCCC)cc1O", "system": "healthy volunteers", "conditions": "dose not given, steady state, together with: valproate", "measurement": "increase in AUC(0-tau)", "result": "32%"}
{"SMILES": "CNC(=O)N[C@H]1CC[C@H](CCN2CCN(c3cccc(Cl)c3Cl)CC2)CC1", "system": "human, plasma", "measurement": "exposure relative to parent drug", "result": "30 to 40%"}
{"SMILES": "COc1cccc(-c2cccc(OC)n2)n1.[Ru+2].c1cnc2c(c1)c1c(c3cccnc32)OCCO1.c1cnc2c(c1)c1c(c3cccnc32)OCCO1", "system": "octanol/water", "conditions": "pH 7.4", "measurement": "log D", "result": -1.1}
{"SMILES": "C=C(C)[C@@H]1CCC(CO)=C[C@H]1c1c(O)cc(CCCCC)cc1O", "system": "healthy volunteers", "conditions": "dose not given, steady state, together with: stiripentol", "measurement": "decrease in AUC(0-tau)", "result": "28%"}
{"SMILES": "Br.Br.Br.CNC1C(O)C(NC)C2OC3(O)C(OC(C)C[C@H]3NC(=O)Cc3ccccn3)OC2C1O (stereo partly shown)", "system": "human liver microsomes", "measurement": "half-life", "result": "> 600 min"}
{"SMILES": "CC(C)[C@@H]1CC[C@@H](C)C[C@H]1C(=O)Nc1ccc(CC#N)cc1", "system": "rat", "conditions": "diet, 90 days", "measurement": "NOAEL", "result": "100 mg/kg/day"}
{"SMILES": "COc1ccc(CCN2CCN(C/C=C/[125I])CC2)cc1OC", "system": "mouse, liver", "conditions": "dose not given", "measurement": "unchanged parent fraction", "result": "90%"}
{"SMILES": "OC1C=Cc2c(cc3ccc4cccc5c6ccccc6c2c3c45)C1O (stereo not shown)", "system": "human liver microsomes", "conditions": "glucuronidation", "measurement": "Km", "result": "25.9 µM"}
{"SMILES": "CC(C)CCO", "system": "rat", "conditions": "intraperitoneal", "measurement": "LD50", "result": "813 mg/kg"}
{"SMILES": "CSCC[C@H](NC(=O)CNC(=O)CNC(=O)[C@H](CO)NC(=O)[C@H](CC(C)C)NC(=O)[C@@H]1CCCN1C(=O)[C@H](CO)NC(=O)[C@H](CC(N)=O)NC(=O)[C@H](CC(C)C)NC(=O)[C@H](C)NC(=O)[C@@H](NC(=O)[C@H](CC(C)C)NC(=O)[C@H](Cc1c[nH]cn1)NC(=O)[C@H](CC(C)C)NC(=O)[C@@H](NC(=O)[C@@H]1CCCN1C(=O)[C@H](CCC(N)=O)NC(=O)[C@H](Cc1ccccc1)NC(=O)[C@H](CC(=O)O)NC(=O)[C@H](CCCNC(=N)N)NC(=O)[C@H](Cc1c[nH]cn1)NC(=O)[C@H](CO)NC(=O)[C@H](Cc1c[nH]cn1)NC(=O)[C@H](CCSC)NC(=O)[C@H](CC(=O)O)NC(=O)CNC(=O)[C@H](CCCNC(=N)N)NC(=O)[C@H](CC(=O)O)NC(=O)CNC(=O)[C@@H](N)CCCNC(=N)N)C(C)C)C(C)C)C(N)=O", "system": "rat", "conditions": "30 mg/kg", "measurement": "elimination half-life", "result": "3 min"}
{"SMILES": "NCCCC[C@H](NC(=O)[C@H](Cc1ccccc1)NC(=O)[C@@H](CCCN=C(N)N)NC(=O)[C@@H](N)Cc1ccc(O)cc1)C(N)=O", "system": "rat, Sprague-Dawley, brain", "measurement": "brain uptake", "result": "0.02 % injected dose/g"}
{"note": "For quick reference, copied from above:"}
{"SMILES": "CC(C)CCO", "system": "rat", "conditions": "intraperitoneal", "measurement": "LD50", "result": "813 mg/kg"}
{"SMILES": "CSCC[C@H](NC(=O)[C@H](Cc1c[nH]c2ccccc12)NC(=O)[C@H](Cc1c[nH]c2ccccc12)NC(=O)[C@H](CCC(=O)O)NC(=O)[C@@H]1CCCN1C(=O)[C@H](CCCNC(=N)N)NC(=O)CNC(=O)[C@@H](N)C(C)C)C(=O)N[C@@H](CC(=O)O)C(=O)N[C@@H](Cc1ccc(O)cc1)C(=O)N[C@@H](CCC(N)=O)C(=O)N[C@@H](CCCCN)C(=O)N[C@@H](CCCNC(=N)N)C(=O)N[C@@H](Cc1ccc(O)cc1)C(=O)NCC(=O)O", "system": "human, hairy skin", "conditions": "intracutaneous", "measurement": "itch threshold concentration", "result": "> 1 mM"}
